Measured values pooled from the literature.
Protocols differ between the studies behind these lines.
Target: Serine/threonine-protein kinase TBK1 (TBK1, Homo sapiens, UniProt Q9UHD2)
Residues used in one study (Q9UHD2 1-729): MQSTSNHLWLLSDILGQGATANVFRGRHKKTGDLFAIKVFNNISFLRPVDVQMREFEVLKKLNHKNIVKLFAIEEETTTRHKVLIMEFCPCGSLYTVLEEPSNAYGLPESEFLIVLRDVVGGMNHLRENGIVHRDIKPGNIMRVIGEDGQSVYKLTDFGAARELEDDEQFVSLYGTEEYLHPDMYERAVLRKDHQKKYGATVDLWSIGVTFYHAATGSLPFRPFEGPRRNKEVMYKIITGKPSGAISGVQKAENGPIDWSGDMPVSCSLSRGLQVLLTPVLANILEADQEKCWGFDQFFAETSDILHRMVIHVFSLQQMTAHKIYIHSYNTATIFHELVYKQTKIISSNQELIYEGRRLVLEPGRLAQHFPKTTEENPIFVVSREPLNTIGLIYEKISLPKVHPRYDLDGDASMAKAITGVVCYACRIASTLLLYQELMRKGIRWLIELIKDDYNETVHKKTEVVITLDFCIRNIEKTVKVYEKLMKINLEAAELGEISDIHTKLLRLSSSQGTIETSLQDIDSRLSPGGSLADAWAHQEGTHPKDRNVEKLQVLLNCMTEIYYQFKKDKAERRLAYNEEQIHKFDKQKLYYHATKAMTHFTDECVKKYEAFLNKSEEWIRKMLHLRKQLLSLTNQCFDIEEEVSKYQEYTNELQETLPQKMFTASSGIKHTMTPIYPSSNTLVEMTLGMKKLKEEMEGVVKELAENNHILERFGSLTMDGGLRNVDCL

SMILES	assay	test system	setting	scale	endpoint	result
CC[C@@H]1[C@H](F)C(=O)N[C@@H]1COc1nccc2cc(C(N)=O)c(OC)cc12	ATP-site probe binding, ActivX profiling	THP-1 cell lysate	0.04 mM, Lys1 site		inhibition	-7.8%
Cc1cc(Nc2cc(N3CCN(C)CC3)nc(Sc3ccc(NC(=O)C4CC4)cc3)n2)[nH]n1	kinase activity, KinaseProfiler		0.03 µM, species human	baseline: control	remaining activity	94%
C=CC(=O)N1CCC(COCC(=O)N2CCN(c3nc(-c4cnc(N)nc4C(F)F)nc(N4CCOC[C@@H]4C)n3)CC2)CC1	KINOMEscan		1 µM		remaining binding	100%
O=C1NC(=O)/C(=C/c2ccc(-c3ccc(F)cc3O)o2)S1	enzyme activity		10 µM		remaining activity	70%
CNc1ncc2c(/C=C/C(=O)N3CCC(OC)CC3)nn(Cc3cccc(C(F)(F)F)c3)c2n1	kinase activity, inhibitor		1 µM	baseline: untreated control	remaining activity	114%
Cn1cc(-c2cnc3ccc(NC(=O)Nc4ccc(F)c(Br)c4)cc3n2)cn1	kinase binding, KiNativ profiling, refers to: Lys1 peptide	PANC-1 lysate	2.5 µM		inhibition	10.4%
COc1cc(N2CCN(C)CC2)ccc1Nc1nc(N)n(C(=S)NCc2c(Cl)cccc2Cl)n1	enzyme activity		10 µM	baseline: control	remaining activity	12%
COc1cc(F)ccc1-c1ncnc(Nc2cccc(C[S@](C)(=N)=O)c2)n1	kinase activity		10 µM, added: 10 µM ATP		remaining activity	52%
